{"data": "Assay results pooled from the literature", "note": "Numbered parts are unrelated; each lists some results of a single study.", "UniProt P00519, sequence (whole entry, unmodified, looked up)": "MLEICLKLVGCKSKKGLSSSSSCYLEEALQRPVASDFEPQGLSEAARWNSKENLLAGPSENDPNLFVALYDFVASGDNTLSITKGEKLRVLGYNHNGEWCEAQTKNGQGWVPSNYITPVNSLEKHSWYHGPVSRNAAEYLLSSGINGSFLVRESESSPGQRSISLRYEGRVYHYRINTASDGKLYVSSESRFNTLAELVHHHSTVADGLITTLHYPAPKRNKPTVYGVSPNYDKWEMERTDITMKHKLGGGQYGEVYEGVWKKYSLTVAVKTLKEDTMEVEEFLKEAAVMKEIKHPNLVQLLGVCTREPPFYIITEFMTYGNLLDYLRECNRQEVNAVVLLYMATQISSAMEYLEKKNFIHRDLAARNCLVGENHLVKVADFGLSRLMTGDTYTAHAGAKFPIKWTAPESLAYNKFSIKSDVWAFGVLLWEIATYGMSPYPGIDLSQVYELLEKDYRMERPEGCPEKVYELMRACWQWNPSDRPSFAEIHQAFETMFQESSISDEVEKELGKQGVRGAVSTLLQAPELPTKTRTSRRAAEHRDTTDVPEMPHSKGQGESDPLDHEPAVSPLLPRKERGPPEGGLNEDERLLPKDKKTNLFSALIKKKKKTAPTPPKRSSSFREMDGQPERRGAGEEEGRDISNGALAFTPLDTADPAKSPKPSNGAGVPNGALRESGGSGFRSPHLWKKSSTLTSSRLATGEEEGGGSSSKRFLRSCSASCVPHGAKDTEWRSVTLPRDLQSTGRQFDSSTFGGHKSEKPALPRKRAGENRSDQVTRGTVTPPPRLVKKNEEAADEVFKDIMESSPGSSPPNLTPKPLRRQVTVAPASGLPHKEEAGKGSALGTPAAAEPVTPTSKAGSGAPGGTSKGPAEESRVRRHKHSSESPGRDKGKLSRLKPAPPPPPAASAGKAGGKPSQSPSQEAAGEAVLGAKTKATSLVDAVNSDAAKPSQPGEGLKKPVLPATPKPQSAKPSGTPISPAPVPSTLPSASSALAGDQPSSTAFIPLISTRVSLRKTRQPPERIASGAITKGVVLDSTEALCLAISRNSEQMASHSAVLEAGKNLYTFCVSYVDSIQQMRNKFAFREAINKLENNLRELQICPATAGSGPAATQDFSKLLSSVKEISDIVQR", "UniProt O00329, sequence (whole entry, looked up)": "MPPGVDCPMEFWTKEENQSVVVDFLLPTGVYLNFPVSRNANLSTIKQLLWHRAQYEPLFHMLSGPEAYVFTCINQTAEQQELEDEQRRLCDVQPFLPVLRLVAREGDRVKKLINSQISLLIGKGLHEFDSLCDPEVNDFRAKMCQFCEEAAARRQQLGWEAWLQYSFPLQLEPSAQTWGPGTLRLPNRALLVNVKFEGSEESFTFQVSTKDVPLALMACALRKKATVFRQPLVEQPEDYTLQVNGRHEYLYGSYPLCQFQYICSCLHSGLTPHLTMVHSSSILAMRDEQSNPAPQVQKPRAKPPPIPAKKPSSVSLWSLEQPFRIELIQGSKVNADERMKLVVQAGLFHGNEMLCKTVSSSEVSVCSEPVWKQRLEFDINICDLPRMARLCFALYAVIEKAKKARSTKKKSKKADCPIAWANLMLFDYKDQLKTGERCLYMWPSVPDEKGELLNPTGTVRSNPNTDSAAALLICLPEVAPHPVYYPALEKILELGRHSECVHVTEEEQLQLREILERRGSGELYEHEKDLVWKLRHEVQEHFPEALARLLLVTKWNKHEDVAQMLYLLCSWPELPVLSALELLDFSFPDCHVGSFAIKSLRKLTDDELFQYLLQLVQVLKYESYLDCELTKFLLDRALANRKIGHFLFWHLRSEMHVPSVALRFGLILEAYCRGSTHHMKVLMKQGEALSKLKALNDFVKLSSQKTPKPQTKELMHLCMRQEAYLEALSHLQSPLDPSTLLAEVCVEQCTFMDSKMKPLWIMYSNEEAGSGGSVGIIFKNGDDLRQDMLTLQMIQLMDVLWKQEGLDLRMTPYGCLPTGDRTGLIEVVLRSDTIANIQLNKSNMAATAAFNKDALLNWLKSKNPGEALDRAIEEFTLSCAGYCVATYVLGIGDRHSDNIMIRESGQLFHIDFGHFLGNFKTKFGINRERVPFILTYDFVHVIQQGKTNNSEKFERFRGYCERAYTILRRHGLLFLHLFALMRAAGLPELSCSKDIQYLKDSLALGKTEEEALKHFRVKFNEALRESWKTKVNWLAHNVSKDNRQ", "UniProt P48730, sequence (whole entry, looked up)": "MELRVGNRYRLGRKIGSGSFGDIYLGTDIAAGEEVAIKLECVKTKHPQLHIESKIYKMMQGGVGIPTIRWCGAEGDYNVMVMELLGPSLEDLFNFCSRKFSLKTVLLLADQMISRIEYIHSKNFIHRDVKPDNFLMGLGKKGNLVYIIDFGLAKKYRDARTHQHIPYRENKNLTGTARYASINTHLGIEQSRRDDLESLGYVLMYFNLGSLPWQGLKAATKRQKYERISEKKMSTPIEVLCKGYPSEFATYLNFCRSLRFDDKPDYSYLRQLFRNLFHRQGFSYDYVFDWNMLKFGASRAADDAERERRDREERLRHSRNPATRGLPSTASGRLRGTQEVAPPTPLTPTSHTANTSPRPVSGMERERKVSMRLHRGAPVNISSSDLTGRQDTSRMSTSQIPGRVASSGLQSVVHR", "UniProt P51957, sequence (whole entry, looked up)": "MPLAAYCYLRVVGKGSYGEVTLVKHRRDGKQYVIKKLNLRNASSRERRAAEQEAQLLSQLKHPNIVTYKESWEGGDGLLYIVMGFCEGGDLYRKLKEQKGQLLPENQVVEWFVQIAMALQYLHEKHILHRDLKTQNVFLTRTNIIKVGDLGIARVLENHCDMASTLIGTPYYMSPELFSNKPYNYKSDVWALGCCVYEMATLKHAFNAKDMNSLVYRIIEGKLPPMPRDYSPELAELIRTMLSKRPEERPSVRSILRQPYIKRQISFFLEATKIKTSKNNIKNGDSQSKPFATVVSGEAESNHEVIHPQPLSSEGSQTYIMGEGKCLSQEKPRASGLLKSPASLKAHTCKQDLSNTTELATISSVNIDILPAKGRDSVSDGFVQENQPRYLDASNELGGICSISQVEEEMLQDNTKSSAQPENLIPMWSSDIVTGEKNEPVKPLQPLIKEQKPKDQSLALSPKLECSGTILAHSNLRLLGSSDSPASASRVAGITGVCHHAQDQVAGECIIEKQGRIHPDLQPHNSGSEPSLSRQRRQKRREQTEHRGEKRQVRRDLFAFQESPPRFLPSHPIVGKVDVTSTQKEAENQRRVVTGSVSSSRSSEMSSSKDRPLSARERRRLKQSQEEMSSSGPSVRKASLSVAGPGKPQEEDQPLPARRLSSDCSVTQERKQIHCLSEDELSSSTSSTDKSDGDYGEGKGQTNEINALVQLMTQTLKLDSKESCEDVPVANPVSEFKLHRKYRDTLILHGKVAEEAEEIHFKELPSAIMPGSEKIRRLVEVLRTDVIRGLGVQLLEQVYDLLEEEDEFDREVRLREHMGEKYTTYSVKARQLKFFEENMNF", "UniProt O75582, sequence (whole entry, looked up)": "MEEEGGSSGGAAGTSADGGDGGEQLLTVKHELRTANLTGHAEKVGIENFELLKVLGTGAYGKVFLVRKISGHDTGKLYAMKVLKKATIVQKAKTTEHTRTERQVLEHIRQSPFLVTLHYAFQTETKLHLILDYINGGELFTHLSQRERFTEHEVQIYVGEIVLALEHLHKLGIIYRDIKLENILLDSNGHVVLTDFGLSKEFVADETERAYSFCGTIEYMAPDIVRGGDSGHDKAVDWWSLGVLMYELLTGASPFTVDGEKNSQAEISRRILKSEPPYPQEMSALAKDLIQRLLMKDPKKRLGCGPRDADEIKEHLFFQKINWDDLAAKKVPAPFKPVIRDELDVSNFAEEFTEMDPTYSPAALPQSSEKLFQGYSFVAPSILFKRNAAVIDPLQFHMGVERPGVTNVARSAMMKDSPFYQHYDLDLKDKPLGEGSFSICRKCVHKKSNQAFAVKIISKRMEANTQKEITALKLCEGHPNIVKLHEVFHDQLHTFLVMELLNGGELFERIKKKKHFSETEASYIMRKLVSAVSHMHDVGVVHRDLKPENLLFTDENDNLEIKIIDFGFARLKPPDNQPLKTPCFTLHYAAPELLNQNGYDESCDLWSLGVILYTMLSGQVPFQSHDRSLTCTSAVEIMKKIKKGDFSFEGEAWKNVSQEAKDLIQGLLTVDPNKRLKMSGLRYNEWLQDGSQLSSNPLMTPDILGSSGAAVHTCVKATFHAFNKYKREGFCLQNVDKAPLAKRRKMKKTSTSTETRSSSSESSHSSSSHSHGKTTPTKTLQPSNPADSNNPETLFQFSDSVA"}
{"data": "Sample 1", "cell line": "A-375", "tested at": "100 µM", "time": "36 h"}
{"Structure (SMILES)": "Cc1ccnc2c1NC(=O)c1cccnc1N2C1CC1", "viability": "115%"}
{"Structure (SMILES)": "C[C@@](Cc1ccc(O)c(O)c1)(NN)C(=O)O", "viability": "97.6%"}
{"Structure (SMILES)": "CC(NCCC(c1ccccc1)c1ccccc1)c1ccccc1 (centres unmarked)", "viability": "-2.47%"}
{"Structure (SMILES)": "CCCCN(CCCC)CC(O)c1cc(Cl)cc2c1-c1ccc(Cl)cc1/C2=C/c1ccc(Cl)cc1 (centres unmarked)", "viability": "5.17%"}
{"Structure (SMILES)": "CC(C)NCC(O)c1ccc(NS(C)(=O)=O)cc1 (centres unmarked)", "viability": "91.8%"}
{"data": "Sample 2", "Compound": "CS(=O)(=O)N1CCCC(NC(=O)[C@H](CCC2CCCCC2)NC(=O)c2ccc(CNc3ncnc4c3nnn4-c3ccccc3)cc2)C1 (some centres unmarked)", "tested at": "0.1 µM"}
{"target": "Ribosomal protein S6 kinase alpha-5, C-terminal kinase domain (RPS6KA5, Homo sapiens, UniProt O75582)", "effect on": "cell-free assay", "technique": "competition with immobilised ligand", "remaining binding": "95%"}
{"target": "PIK3CD (Homo sapiens, UniProt O00329)", "effect on": "cell-free assay", "technique": "competition with immobilised ligand", "remaining binding": "91%"}
{"target": "MAPK6 (Homo sapiens, UniProt Q16659)", "effect on": "cell-free assay", "technique": "competition with immobilised ligand", "remaining binding": "94%"}
{"target": "CSNK1D (Homo sapiens, UniProt P48730)", "effect on": "cell-free assay", "technique": "competition with immobilised ligand", "remaining binding": "96%"}
{"target": "NEK4 (Homo sapiens, UniProt P51957)", "effect on": "cell-free assay", "technique": "competition with immobilised ligand", "remaining binding": "100%"}
{"target": "Tyrosine-protein kinase ABL1, phosphorylated (ABL1, Homo sapiens, UniProt P00519, F317I)", "effect on": "binding", "remaining binding": "95%"}
{"data": "Sample 3", "target": "Myotonin-protein kinase (DMPK, Homo sapiens, UniProt Q09013)", "effect on": "enzyme activity", "mode": "inhibitor", "tested at": "0.5 µM", "baseline": "control", "UniProt Q09013, sequence (whole entry, looked up)": "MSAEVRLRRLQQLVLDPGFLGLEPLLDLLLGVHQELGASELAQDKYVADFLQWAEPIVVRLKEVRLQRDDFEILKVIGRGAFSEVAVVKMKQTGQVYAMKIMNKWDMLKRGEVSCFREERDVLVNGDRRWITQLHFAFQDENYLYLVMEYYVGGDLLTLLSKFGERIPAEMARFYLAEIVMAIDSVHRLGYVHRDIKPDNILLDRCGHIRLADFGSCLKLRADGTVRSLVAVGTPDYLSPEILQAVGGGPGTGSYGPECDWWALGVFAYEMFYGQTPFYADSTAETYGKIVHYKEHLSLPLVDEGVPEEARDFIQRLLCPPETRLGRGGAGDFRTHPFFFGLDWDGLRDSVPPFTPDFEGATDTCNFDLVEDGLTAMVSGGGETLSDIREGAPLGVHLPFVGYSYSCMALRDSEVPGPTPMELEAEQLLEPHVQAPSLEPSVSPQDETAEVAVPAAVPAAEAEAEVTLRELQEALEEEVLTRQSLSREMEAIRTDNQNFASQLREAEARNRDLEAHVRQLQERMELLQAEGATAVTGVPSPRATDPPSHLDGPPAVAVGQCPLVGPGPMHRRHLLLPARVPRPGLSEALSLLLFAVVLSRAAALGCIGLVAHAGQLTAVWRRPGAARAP"}
{"SMILES": "Nc1[nH]nc2nc3ccccc3nc12", "remaining activity [%]": 98.4}
{"SMILES": "O=C(CCCc1ccc(-c2ccccc2F)cc1)Nc1ccc(O)cc1", "remaining activity [%]": 130}
{"SMILES": "Cc1ccc(Nc2nccc(N(C)c3ccc4c(C)n(C)nc4c3)n2)cc1S(N)(=O)=O", "remaining activity [%]": 93.5}
{"SMILES": "COc1cc2ncnc(Nc3ccc(F)c(Cl)c3)c2cc1OCCCN1CCOCC1", "remaining activity [%]": 90.1}
{"SMILES": "CNC(=O)c1cc(Oc2ccc(NC(=O)Nc3ccc(Cl)c(C(F)(F)F)c3)cc2)ccn1", "remaining activity [%]": 93.2}
{"SMILES": "NCCNc1ncc(C(N)=O)c(Nc2cccc(C(F)(F)F)c2)n1", "remaining activity [%]": 104}
{"SMILES": "COc1ccc(OC)c2c(=S)c3ccccc3[nH]c12", "remaining activity [%]": 99.6}
{"SMILES": "COc1ccc(CNC(=O)Nc2ncc([N+](=O)[O-])s2)cc1", "remaining activity [%]": 101}
{"SMILES": "O=C(Nc1cccc(Nc2cc(Nc3cccc(C(F)(F)F)c3)ncn2)c1)C1CC1", "remaining activity [%]": 99.7}
{"SMILES": "O=C1NC(=O)C(c2cn(CCCO)c3ncccc23)=C1c1cnccn1", "remaining activity [%]": 99.6}
{"SMILES": "CC(C)[C@H](CO)Nc1nc(Nc2cc(N)cc(Cl)c2)c2ncn(C(C)C)c2n1", "remaining activity [%]": 99.7}
{"SMILES": "COc1ccc(C(=O)Nc2sc3c(c2C(N)=O)CCCC3)cc1OC", "remaining activity [%]": 108}
{"SMILES": "Cn1sc(=O)n(Cc2ccccc2)c1=O", "remaining activity [%]": 100}
{"SMILES": "O=C1NC(=O)C(c2cn(CCCn3ccnc3)c3ccccc23)=C1Nc1ccccc1", "remaining activity [%]": 104}
{"data": "Sample 4", "species": "human", "medium": "microsomes or S9", "tested at": "2 µM", "time": "0.5 h"}
{"Structure (SMILES)": "CC1=C(C(=O)OC(C)C)C(c2ccc(F)cc2)N2N=CNC2=N1 (centres unmarked)", "remaining compound [%]": 49.5}
{"Structure (SMILES)": "O=C(c1c2c(nc3ccccc13)C(=O)N(C1CCCCC1)C2)N1CCN(c2ccccn2)CC1", "remaining compound [%]": 66.3}
{"Structure (SMILES)": "Cc1ccc(S(=O)(=O)CCc2noc(C(=O)NCCc3ccc(S(N)(=O)=O)cc3)n2)cc1", "remaining compound [%]": 66.9}
{"Structure (SMILES)": "CCn1nccc1CN(C)S(=O)(=O)c1ccc(Br)s1", "remaining compound [%]": 44}
{"Structure (SMILES)": "COc1cc(=O)n(C)cc1C(=O)NCCCn1ncccc1=O", "remaining compound [%]": "> 99"}
{"Structure (SMILES)": "CCOC(=O)c1c(C)nn(-c2ncnc3c2c(C)c(C)n3CCc2ccccc2)c1N", "remaining compound [%]": "> 100"}
{"Structure (SMILES)": "CCCNC(=O)Nc1ccccc1S(=O)(=O)NCCC", "remaining compound [%]": "> 99"}
{"note": "Repeated from above (sample 1):"}
{"Structure (SMILES)": "Cc1ccnc2c1NC(=O)c1cccnc1N2C1CC1", "viability": "115%"}
{"Structure (SMILES)": "C[C@@](Cc1ccc(O)c(O)c1)(NN)C(=O)O", "viability": "97.6%"}
{"Structure (SMILES)": "CC(NCCC(c1ccccc1)c1ccccc1)c1ccccc1 (centres unmarked)", "viability": "-2.47%"}
{"Structure (SMILES)": "CCCCN(CCCC)CC(O)c1cc(Cl)cc2c1-c1ccc(Cl)cc1/C2=C/c1ccc(Cl)cc1 (centres unmarked)", "viability": "5.17%"}
{"Structure (SMILES)": "CC(C)NCC(O)c1ccc(NS(C)(=O)=O)cc1 (centres unmarked)", "viability": "91.8%"}
